{"data": "Measured values pooled from the literature", "note": "Every numbered part comes from another study and shows a few of its results, in no order."}
{"data": "Sample 1", "target": "Interferon regulatory factor 7, full length, phosphomimetic (IRF7, Homo sapiens, UniProt Q92985, residues 1-503, S101K/S471D/S472D/S475D/S476D/S477D/S483D/S484D/S487D)", "technique": "protein-binding microarray", "molecule type": "double-stranded DNA, one strand shown", "sample": "in vitro", "tested at": "250 nM", "setting": "60-bp whole probe", "added": "salmon DNA 0.4 mg/ml", "baseline": "random background probes", "reading": "higher = stronger binding", "constant ends, left off below": "GCCTAGCAC … GTCTTGATTCGCTTGACGCTGCTG", "Target sequence (chain)": "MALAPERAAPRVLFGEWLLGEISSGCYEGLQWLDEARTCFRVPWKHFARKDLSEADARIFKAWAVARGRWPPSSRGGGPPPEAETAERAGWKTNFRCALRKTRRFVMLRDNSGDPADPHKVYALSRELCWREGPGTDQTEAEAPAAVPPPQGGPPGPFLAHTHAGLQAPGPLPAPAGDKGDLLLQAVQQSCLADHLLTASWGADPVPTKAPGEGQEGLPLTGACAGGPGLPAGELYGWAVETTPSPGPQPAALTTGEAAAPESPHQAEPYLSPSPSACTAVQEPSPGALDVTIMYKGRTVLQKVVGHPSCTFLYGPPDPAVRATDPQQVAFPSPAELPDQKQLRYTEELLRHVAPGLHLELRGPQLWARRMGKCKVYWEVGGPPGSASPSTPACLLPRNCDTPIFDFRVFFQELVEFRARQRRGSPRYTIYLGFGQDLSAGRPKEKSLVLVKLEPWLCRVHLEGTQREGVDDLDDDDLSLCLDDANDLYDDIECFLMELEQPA"}
{"Sequence": "ACTCGTTTACATTTTCCAAAGTGCTAG", "log fluorescence": "1.86 z-score"}
{"Sequence": "TTAGGTTTCGGGTTACGGTTAGTGCTA", "log fluorescence": "12.9 z-score"}
{"Sequence": "ATAGAACTGAGTTTCGATTAGTGCTAG", "log fluorescence": "8.52 z-score"}
{"Sequence": "TTAGATATCAGTCTCGATCAGTGCTAG", "log fluorescence": "0.285 z-score"}
{"Sequence": "TACGGTTTCCTTTTCCTGACGTGCTAG", "log fluorescence": "6.96 z-score"}
{"Sequence": "GACGGTTTCGGTGTCGGGACGTGCTAG", "log fluorescence": "3.78 z-score"}
{"Sequence": "GACGGAATCGACACTGGGGACGTGCTA", "log fluorescence": "-0.687 z-score"}
{"Sequence": "TCAAGTTTTCTTTTCCAACTGTGCTAG", "log fluorescence": "3.13 z-score"}
{"data": "Sample 2", "target": "Prothrombin, mature alpha-thrombin (F2, Homo sapiens, UniProt P00734)", "technique": "aptamer microarray, sandwich", "molecule type": "DNA with 2'F-ANA", "sample": "in vitro", "tested at": "200 nM", "setting": "whole 15-mer aptamer, many near background", "added": "Cy3 exosite-II aptamer, 400 nM", "reading": "higher = stronger binding", "sequence": "GGTTGGTGTGGTTGG"}
{"Modification": "2'F-ANA at 2 6 7 8 9 11 12 13 14", "mean fluorescence intensity": "138 a.u."}
{"Modification": "2'F-ANA at 4 5 7 8 9 10 11 13 15", "mean fluorescence intensity": "46.6 a.u."}
{"Modification": "2'F-ANA at 1 5 8 10 11 13 14 15", "mean fluorescence intensity": "53 a.u."}
{"Modification": "2'F-ANA at 2 4 8 11", "mean fluorescence intensity": "313 a.u."}
{"Modification": "2'F-ANA at 1 2 13", "mean fluorescence intensity": "138 a.u."}
{"Modification": "2'F-ANA at 2 4 5 7 10 11 12 13 15", "mean fluorescence intensity": "49.7 a.u."}
{"Modification": "2'F-ANA at 2 3 4 6 8 10 11 12 13", "mean fluorescence intensity": "191 a.u."}
{"Modification": "2'F-ANA at 1 3 4 6 7 8 9 10 11 12 13 14", "mean fluorescence intensity": "136 a.u."}
{"Modification": "2'F-ANA at 2 5 6 9 10 12 14", "mean fluorescence intensity": "43.1 a.u."}
{"data": "Sample 3", "target": "Histone acetyltransferase KAT6A, winged helix 2, GST fusion (KAT6A, Homo sapiens, UniProt Q92794, residues 85-181)", "technique": "protein binding microarray", "molecule type": "double-stranded DNA, one strand shown", "sample": "in vitro", "tested at": "not given", "setting": "8-mer, flanks averaged, mean of 2 arrays, mostly near background", "baseline": "not given", "reading": "higher = stronger binding", "Target sequence (chain)": "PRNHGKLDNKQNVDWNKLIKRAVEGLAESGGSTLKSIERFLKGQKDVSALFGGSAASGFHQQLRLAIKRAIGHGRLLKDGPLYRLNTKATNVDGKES"}
{"Sequence": "GGCAGCAC", "E-score": -0.056}
{"Sequence": "ACCGAGCG", "E-score": 0.194}
{"Sequence": "CGCTGAAG", "E-score": 0.117}
{"Sequence": "GGATCACA", "E-score": -0.0562}
{"Sequence": "CTGTCACC", "E-score": -0.0607}
{"Sequence": "CCGTTCAA", "E-score": 0.0152}
{"Sequence": "AATATCAT", "E-score": 0.103}
{"Sequence": "AGATTCAA", "E-score": -0.046}
{"data": "Single results of other studies"}
{"Molecule": "PhoQ, residues 284 288 289 292 302 303 SCKMEA", "target": "PhoP, residues 12 14 15 18 19 LYFRQ (Escherichia coli, UniProt P23836)", "test": "Sort-seq, item: YFP reporter", "test system": "E. coli", "conditions": "PhoQ-PhoP variant library, added: 10 µM Mg2+", "how to read": "baseline: high Mg2+ state, higher = stronger signaling", "quantity": "fold induction", "value": 4.28}
{"note": "Repeated from above (sample 1):"}
{"Sequence": "TACGGTTTCCTTTTCCTGACGTGCTAG", "log fluorescence": "6.96 z-score"}
{"Sequence": "GACGGTTTCGGTGTCGGGACGTGCTAG", "log fluorescence": "3.78 z-score"}
{"Sequence": "GACGGAATCGACACTGGGGACGTGCTA", "log fluorescence": "-0.687 z-score"}
{"Sequence": "TCAAGTTTTCTTTTCCAACTGTGCTAG", "log fluorescence": "3.13 z-score"}
